{"data": "Assay results pooled from the literature", "note": "Numbered parts are unrelated; each lists some results of a single study. Several values in a cell are separate wells, animals, samples, runs or records.", "chain of UniProt P54646 (whole entry, looked up)": "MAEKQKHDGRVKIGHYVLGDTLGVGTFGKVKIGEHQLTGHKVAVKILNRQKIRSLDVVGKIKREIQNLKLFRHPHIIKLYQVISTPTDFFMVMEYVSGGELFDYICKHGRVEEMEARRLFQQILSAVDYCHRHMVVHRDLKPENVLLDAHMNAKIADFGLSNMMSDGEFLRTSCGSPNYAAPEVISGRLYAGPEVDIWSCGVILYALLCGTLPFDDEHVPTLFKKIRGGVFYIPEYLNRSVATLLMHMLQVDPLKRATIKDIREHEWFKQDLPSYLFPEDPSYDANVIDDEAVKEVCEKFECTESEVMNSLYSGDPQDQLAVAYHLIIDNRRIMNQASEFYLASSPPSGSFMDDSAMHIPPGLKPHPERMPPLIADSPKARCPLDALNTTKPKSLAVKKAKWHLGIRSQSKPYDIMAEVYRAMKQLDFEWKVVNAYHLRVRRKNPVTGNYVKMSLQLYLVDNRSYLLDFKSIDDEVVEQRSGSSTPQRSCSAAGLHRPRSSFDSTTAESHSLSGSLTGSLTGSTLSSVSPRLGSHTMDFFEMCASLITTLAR", "chain of UniProt P08922 (whole entry, looked up)": "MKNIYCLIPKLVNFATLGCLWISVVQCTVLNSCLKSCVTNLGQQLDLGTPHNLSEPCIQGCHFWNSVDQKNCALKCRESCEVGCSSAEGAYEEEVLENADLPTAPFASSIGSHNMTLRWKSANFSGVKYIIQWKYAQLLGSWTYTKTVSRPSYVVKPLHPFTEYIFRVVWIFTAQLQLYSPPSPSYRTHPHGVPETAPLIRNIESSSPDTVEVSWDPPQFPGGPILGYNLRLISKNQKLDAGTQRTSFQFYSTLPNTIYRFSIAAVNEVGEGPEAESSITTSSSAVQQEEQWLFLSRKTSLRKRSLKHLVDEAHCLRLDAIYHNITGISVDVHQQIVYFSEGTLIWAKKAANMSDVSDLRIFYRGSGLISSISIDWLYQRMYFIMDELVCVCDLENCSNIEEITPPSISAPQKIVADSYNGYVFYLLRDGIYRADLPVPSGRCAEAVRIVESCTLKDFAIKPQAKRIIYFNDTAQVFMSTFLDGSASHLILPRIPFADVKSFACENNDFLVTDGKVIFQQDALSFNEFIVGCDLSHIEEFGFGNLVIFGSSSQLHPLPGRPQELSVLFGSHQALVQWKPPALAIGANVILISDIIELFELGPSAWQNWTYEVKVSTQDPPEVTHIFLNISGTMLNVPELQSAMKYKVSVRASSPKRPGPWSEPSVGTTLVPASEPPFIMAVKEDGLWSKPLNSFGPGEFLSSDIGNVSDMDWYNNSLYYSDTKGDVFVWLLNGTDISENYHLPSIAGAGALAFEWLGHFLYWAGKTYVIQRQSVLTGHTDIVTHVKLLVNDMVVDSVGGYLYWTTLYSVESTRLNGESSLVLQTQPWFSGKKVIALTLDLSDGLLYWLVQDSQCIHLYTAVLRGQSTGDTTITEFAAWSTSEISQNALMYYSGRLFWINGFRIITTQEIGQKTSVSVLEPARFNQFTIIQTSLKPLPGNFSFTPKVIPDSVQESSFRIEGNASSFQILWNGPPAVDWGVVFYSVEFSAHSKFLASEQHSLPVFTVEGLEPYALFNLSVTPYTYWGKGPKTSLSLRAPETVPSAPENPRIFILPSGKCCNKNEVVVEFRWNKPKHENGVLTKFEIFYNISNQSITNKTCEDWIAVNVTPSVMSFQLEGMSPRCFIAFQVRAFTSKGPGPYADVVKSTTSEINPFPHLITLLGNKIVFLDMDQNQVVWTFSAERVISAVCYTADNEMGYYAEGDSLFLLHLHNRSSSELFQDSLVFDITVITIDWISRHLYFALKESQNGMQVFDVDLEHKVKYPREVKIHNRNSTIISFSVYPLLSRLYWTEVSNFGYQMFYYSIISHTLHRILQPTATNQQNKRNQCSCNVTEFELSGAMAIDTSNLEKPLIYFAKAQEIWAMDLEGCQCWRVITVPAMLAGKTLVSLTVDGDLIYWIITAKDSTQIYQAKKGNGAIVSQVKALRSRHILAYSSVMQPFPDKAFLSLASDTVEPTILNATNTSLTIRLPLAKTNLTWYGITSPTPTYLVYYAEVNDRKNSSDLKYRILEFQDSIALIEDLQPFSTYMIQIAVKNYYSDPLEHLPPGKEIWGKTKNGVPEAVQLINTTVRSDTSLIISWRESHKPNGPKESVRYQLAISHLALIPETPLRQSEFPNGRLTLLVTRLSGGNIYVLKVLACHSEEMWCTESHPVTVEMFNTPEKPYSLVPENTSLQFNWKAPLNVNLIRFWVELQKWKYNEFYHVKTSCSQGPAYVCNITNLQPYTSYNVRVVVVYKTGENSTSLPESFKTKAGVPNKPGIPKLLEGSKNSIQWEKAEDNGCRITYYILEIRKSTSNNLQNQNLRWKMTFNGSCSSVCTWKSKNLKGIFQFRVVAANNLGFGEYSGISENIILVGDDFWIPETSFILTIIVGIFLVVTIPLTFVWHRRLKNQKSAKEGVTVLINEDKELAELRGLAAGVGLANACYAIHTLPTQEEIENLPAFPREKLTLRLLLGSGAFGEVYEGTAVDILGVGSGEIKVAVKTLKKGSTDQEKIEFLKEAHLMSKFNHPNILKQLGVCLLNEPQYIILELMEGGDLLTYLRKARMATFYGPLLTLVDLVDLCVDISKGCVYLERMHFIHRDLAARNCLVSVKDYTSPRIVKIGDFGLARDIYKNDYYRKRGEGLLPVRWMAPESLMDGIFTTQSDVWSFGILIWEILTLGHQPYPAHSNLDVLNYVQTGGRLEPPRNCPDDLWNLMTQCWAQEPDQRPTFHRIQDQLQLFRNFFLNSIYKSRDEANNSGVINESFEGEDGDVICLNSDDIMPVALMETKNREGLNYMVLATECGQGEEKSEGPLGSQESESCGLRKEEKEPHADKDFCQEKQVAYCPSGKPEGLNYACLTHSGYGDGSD", "chain of UniProt P27448 (whole entry, looked up)": "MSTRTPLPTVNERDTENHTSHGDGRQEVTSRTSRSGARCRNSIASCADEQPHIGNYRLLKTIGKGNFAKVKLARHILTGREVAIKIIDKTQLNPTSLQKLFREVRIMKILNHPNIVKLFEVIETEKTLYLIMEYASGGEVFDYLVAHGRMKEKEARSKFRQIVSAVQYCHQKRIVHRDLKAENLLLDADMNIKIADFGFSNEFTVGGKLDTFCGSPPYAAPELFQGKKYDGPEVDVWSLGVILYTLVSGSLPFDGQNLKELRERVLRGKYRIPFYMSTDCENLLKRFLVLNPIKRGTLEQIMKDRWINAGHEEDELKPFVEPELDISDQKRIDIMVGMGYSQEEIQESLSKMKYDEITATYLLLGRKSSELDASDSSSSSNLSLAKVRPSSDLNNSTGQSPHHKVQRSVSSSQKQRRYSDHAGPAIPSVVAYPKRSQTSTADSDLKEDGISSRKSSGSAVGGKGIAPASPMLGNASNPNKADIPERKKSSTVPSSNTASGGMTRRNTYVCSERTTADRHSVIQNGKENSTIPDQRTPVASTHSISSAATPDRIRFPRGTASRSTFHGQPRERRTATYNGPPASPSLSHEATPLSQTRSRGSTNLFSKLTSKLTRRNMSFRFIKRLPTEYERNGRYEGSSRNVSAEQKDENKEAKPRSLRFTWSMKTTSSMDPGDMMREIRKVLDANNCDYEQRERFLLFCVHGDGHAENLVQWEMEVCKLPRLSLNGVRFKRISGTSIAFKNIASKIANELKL", "chain of UniProt Q9Y2U5 (whole entry, looked up)": "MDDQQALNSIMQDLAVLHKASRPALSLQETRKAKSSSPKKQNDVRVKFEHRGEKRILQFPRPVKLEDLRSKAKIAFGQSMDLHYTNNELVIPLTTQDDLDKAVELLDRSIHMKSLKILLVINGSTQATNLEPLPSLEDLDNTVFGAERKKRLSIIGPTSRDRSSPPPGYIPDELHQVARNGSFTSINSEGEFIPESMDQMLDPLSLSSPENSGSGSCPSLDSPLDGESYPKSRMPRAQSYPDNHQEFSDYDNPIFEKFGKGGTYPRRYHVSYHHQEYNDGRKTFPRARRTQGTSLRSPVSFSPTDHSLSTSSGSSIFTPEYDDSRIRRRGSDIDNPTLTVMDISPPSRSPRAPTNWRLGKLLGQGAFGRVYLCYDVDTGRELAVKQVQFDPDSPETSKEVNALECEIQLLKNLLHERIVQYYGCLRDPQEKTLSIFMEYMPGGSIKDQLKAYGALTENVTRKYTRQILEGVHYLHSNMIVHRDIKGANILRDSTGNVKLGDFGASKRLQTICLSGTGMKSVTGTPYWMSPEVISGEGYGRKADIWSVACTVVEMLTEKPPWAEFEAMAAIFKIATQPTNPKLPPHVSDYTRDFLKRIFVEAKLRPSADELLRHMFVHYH", "chain of UniProt Q96PN8 (whole entry, looked up)": "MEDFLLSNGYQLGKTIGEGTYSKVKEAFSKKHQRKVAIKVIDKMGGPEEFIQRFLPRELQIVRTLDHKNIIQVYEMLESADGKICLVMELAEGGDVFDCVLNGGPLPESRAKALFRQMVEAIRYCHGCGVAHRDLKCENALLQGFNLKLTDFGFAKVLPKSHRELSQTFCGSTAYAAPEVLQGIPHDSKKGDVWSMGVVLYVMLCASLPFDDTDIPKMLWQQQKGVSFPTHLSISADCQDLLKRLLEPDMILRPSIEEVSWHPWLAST"}
{"data": "Study 1", "Structure (SMILES)": "COc1cccc(CNC(=O)c2nc3scc(COCc4ccc(C(=O)O)cc4)c3c(=O)[nH]2)c1", "effect on": "cell-free assay", "technique": "competition with immobilised ligand", "tested at": "1 µM"}
{"target": "COQ8B (Homo sapiens, UniProt Q96D53)", "remaining binding [%]": 93.8}
{"target": "Tyrosine-protein kinase JAK1, JH1 (JAK1, Homo sapiens, UniProt P23458)", "remaining binding [%]": 93.9}
{"target": "MAST1 (Homo sapiens, UniProt Q9Y2H9)", "remaining binding [%]": 84.4}
{"target": "MAPK15 (Homo sapiens, UniProt Q8TD08)", "remaining binding [%]": 82.4}
{"target": "TSSK3 (Homo sapiens, UniProt Q96PN8)", "remaining binding [%]": 81.4}
{"target": "MTOR (Homo sapiens, UniProt P42345)", "remaining binding [%]": 100}
{"target": "CAMKK1 (Homo sapiens, UniProt Q8N5S9)", "remaining binding [%]": 100}
{"target": "MAPK12 (Homo sapiens, UniProt P53778)", "remaining binding [%]": 92.1}
{"target": "RET (Homo sapiens, UniProt P07949)", "remaining binding [%]": 72.3}
{"target": "MARK3 (Homo sapiens, UniProt P27448)", "remaining binding [%]": 100}
{"target": "ULK3 (Homo sapiens, UniProt Q6PHR2)", "remaining binding [%]": 76}
{"target": "EPHA6 (Homo sapiens, UniProt Q9UF33)", "remaining binding [%]": 85.4}
{"target": "MAP3K10 (Homo sapiens, UniProt Q02779)", "remaining binding [%]": 100}
{"target": "ROS1 (Homo sapiens, UniProt P08922)", "remaining binding [%]": 100}
{"target": "PIK3CA (Homo sapiens, UniProt P42336)", "remaining binding [%]": 78.8}
{"target": "MAPK7 (Homo sapiens, UniProt Q13164)", "remaining binding [%]": 99.3}
{"target": "MINK1 (Homo sapiens, UniProt Q8N4C8)", "remaining binding [%]": 74.9}
{"target": "NEK1 (Homo sapiens, UniProt Q96PY6)", "remaining binding [%]": 100}
{"target": "PRKAA2 (Homo sapiens, UniProt P54646)", "remaining binding [%]": 70.5}
{"target": "Ribosomal protein S6 kinase alpha-5, N-terminal kinase domain (RPS6KA5, Homo sapiens, UniProt O75582)", "remaining binding [%]": 98}
{"target": "MAP2K5 (Homo sapiens, UniProt Q13163)", "remaining binding [%]": 100}
{"target": "PHKG2 (Homo sapiens, UniProt P15735)", "remaining binding [%]": 83.8}
{"target": "MAP3K2 (Homo sapiens, UniProt Q9Y2U5)", "remaining binding [%]": 65.5}
{"target": "MAPK14 (Homo sapiens, UniProt Q16539)", "remaining binding [%]": 96.7}
{"target": "GRK3 (Homo sapiens, UniProt P35626)", "remaining binding [%]": 72.5}
{"data": "Study 2", "target": "Serine/threonine-protein kinase PAK 2 (PAK2, Homo sapiens, UniProt Q13177)", "effect on": "enzyme activity", "action": "inhibitor", "tested at": "0.5 µM", "reference": "control", "chain of UniProt Q13177 (whole entry, looked up)": "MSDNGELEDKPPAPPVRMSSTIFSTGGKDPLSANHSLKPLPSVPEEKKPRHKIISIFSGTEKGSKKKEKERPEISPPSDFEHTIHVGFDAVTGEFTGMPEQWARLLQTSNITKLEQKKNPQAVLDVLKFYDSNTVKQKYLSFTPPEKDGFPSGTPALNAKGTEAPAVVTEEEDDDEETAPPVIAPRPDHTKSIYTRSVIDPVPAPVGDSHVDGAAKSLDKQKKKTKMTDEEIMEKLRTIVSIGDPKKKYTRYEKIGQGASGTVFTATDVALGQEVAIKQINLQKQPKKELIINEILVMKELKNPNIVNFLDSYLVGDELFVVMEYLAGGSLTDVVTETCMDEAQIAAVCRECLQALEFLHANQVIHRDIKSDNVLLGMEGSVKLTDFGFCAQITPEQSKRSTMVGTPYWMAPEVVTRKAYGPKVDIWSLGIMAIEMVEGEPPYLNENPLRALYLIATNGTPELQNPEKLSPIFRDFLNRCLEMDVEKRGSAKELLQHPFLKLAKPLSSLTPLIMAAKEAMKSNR"}
{"SMILES": "Cn1c2ccccc2c2c3c(c4c5ccccc5n(CCC#N)c4c21)CNC3=O", "remaining activity [%]": 91.7}
{"SMILES": "COc1cc2ncnc(Nc3ccc(Oc4ccccc4)cc3)c2cc1OC", "remaining activity [%]": 78.7}
{"SMILES": "OCC(O)CCON=C1C(c2c(O)[nH]c3ccccc23)=Nc2ccccc21 (stereo not shown)", "remaining activity [%]": 82.1}
{"SMILES": "O=C1NC(=O)C(c2cn(CCCn3ccnc3)c3ccccc23)=C1Nc1ccccc1", "remaining activity [%]": 88.5}
{"SMILES": "COc1ccc(C(=O)Nc2sc3c(c2C(N)=O)CCCC3)cc1OC", "remaining activity [%]": 99.1}
{"SMILES": "Oc1ccc(-c2nc(-c3ccncc3)c(-c3ccc(F)cc3)[nH]2)cc1", "remaining activity [%]": 94.1}
{"SMILES": "Nc1ncnc2n[nH]c(Nc3ccc(F)cc3)c12", "remaining activity [%]": 103}
{"SMILES": "Cc1ccc(NC(=O)c2ccc(CN3CCN(C)CC3)cc2)cc1Nc1nc(-c2cccnc2)cs1", "remaining activity [%]": 111}
{"SMILES": "CO[C@H]1C[C@@H]2CC[C@@H](C)[C@@](O)(O2)C(=O)C(=O)N2CCCC[C@H]2C(=O)O[C@H]([C@H](C)C[C@@H]2CC[C@@H](O)[C@H](OC)C2)CC(=O)[C@H](C)/C=C(\\C)[C@@H](O)[C@@H](OC)C(=O)[C@H](C)C[C@H](C)/C=C/C=C/C=C/1C", "remaining activity [%]": 101}
{"SMILES": "Cn1sc(=O)n(Cc2ccccc2)c1=O", "remaining activity [%]": 104}
{"SMILES": "Cc1nc(-c2ccccc2)c(-c2ccncc2)o1", "remaining activity [%]": 82.3}
{"SMILES": "CCOC(=O)c1c(C)[nH]c(/C=C2\\C(=O)Nc3ccccc32)c1C", "remaining activity [%]": 92.5}
{"SMILES": "O=c1c2ccccc2[nH]c(=S)n1CCN1CCC(=C(c2ccc(F)cc2)c2ccc(F)cc2)CC1", "remaining activity [%]": 103}
{"SMILES": "O=C(O)c1ccc2c3c1cccc3c(=O)n1c3ccccc3nc21", "remaining activity [%]": 97}
{"data": "Study 3", "host": "human", "sample": "microsomes or S9", "tested at": "2 µM", "time": "0.5 h"}
{"SMILES": "Cc1n[nH]cc1CNC1(Cc2ccc(Br)cc2)CCCCC1", "remaining compound [%]": "> 100"}
{"SMILES": "c1ccc(Cn2c(CNc3nc4ccccc4n3CCN3CCOCC3)nc3ccccc32)cc1", "remaining compound [%]": 0.343}
{"SMILES": "Cn1cnc2c(Nc3cnn(-c4ccc(Cl)cc4)c3)ncnc21", "remaining compound [%]": 94.2}
{"SMILES": "CCc1nc(Cl)c2c3c(sc2n1)CC(C)CC3 (stereo not shown)", "remaining compound [%]": 1.82}
{"SMILES": "CCCNS(=O)(=O)c1nc2nc(C)cc(C)n2n1", "remaining compound [%]": 77.1}
{"SMILES": "CC(C)COc1cc(=O)n2c(c1C(=O)NCC1CC1)CCCCC2", "remaining compound [%]": 74.1}
{"data": "Study 4", "cell line": "A-375", "tested at": "100 µM", "time": "18 h"}
{"SMILES": "COCCCOc1cc(C[C@@H](C[C@H](N)[C@@H](O)C[C@H](C(=O)NCC(C)(C)C(N)=O)C(C)C)C(C)C)ccc1OC", "viability [%]": 81.3}
{"SMILES": "Cc1ccc(O)cc1", "viability [%]": 87.3}
{"SMILES": "CCCCNc1ccc(C(=O)OCCN(C)C)cc1", "viability [%]": 90.6}
{"SMILES": "CNC(=O)c1c(C)oc2cc(Oc3ncnc4cc(OC)c(OC)cc34)ccc12", "viability [%]": 101}
{"SMILES": "OCCN1C[C@H](O)[C@@H](O)[C@H](O)[C@H]1CO", "viability [%]": 91}
{"SMILES": "O=C(O)c1cc(/N=N/c2ccc(S(=O)(=O)Nc3ccccn3)cc2)ccc1O", "viability [%]": 93.2}
{"SMILES": "CCN(CC)CCNC(=O)c1ccc(N)cc1", "viability [%]": 99.7}
{"data": "Further values, each from its own experiment"}
{"Compound": "COc1ccc(-c2c(Nc3ccccn3)[nH]c3c(C4=CCCCC4)c(-c4ccccc4)nn3c2=O)cc1", "test": "LC-MS/MS", "system": "human, plasma", "setting": "oral, 50 mg once daily", "measurement": "AUMC(0-tau)", "result": "408000 h²·ng/mL and 372000 h²·ng/mL and 382000 h²·ng/mL"}
{"Compound": "CC(C)(C)c1cnc(CSc2cnc(NC(=O)C3CCNCC3)s2)o1", "target or system": "HH", "test": "trypan blue exclusion", "setting": "10 µM, 48 h", "how to read": "reference: untreated", "measurement": "viability", "result": "0.782% and 0.729% and 3.14%"}
{"Compound": "CC(C)n1cnc(-c2ccc(F)cc2)c1-c1ncc(C(=O)Nc2ccc(N3CCN(C)CC3)cc2)[nH]1", "system": "human, idiopathic pulmonary fibrosis", "setting": "30 mg once daily, trial, treatment-emergent", "measurement": "patients with Gamma-glutamyltransferase increased", "result": "0%"}
{"note": "Repeated from above (study 2):"}
{"SMILES": "CCOC(=O)c1c(C)[nH]c(/C=C2\\C(=O)Nc3ccccc32)c1C", "remaining activity [%]": 92.5}
{"SMILES": "CO[C@H]1C[C@@H]2CC[C@@H](C)[C@@](O)(O2)C(=O)C(=O)N2CCCC[C@H]2C(=O)O[C@H]([C@H](C)C[C@@H]2CC[C@@H](O)[C@H](OC)C2)CC(=O)[C@H](C)/C=C(\\C)[C@@H](O)[C@@H](OC)C(=O)[C@H](C)C[C@H](C)/C=C/C=C/C=C/1C", "remaining activity [%]": 101}
{"SMILES": "OCC(O)CCON=C1C(c2c(O)[nH]c3ccccc23)=Nc2ccccc21 (stereo not shown)", "remaining activity [%]": 82.1}
